Measured values collected from several papers.
Compare with care: the assays were run in different laboratories.
Organism: Escherichia coli

NC[C@@H]1O[C@H](O[C@H]2[C@@H](O)[C@H](O[C@@H]3[C@@H](O)[C@H](N)C[C@H](N)[C@H]3O[C@H]3O[C@H](CO)[C@@H](OCCO)[C@H](O)[C@H]3N)O[C@@H]2CO)[C@H](N)[C@@H](O)[C@@H]1O  MIC (broth microdilution; clinical isolate AG 055): 32 to 64 µg/mL
CSCC[C@H](NC(=O)[C@H](CCCNC(=N)N)NC(=O)[C@H](Cc1c[nH]c2ccccc12)NC(=O)[C@H](CCC(N)=O)NC(=O)[C@H](Cc1c[nH]c2ccccc12)NC(=O)[C@H](CCCNC(=N)N)NC(=O)[C@@H](N)CCCNC(=N)N)C(=O)N[C@@H](CCCCN)C(=O)N[C@@H](CCCCN)C(=O)N[C@@H](CC(C)C)C(=O)NCC(=O)NCCCC[C@H](NC(=O)CNC(=O)[C@H](CC(C)C)NC(=O)[C@H](CCCCN)NC(=O)[C@H](CCCCN)NC(=O)[C@H](CCSC)NC(=O)[C@H](CCCNC(=N)N)NC(=O)[C@H](Cc1c[nH]c2ccccc12)NC(=O)[C@H](CCC(N)=O)NC(=O)[C@H](Cc1c[nH]c2ccccc12)NC(=O)[C@H](CCCNC(=N)N)NC(=O)[C@@H](N)CCCNC(=N)N)C(=O)NCCCCCC(=O)N[C@@H](CSSC[C@H](NC(=O)CCCCCNC(=O)[C@H](CCCCNC(=O)CNC(=O)[C@H](CC(C)C)NC(=O)[C@H](CCCCN)NC(=O)[C@H](CCCCN)NC(=O)[C@H](CCSC)NC(=O)[C@H](CCCNC(=N)N)NC(=O)[C@H](Cc1c[nH]c2ccccc12)NC(=O)[C@H](CCC(N)=O)NC(=O)[C@H](Cc1c[nH]c2ccccc12)NC(=O)[C@H](CCCNC(=N)N)NC(=O)[C@@H](N)CCCNC(=N)N)NC(=O)CNC(=O)[C@H](CC(C)C)NC(=O)[C@H](CCCCN)NC(=O)[C@H](CCCCN)NC(=O)[C@H](CCSC)NC(=O)[C@H](CCCNC(=N)N)NC(=O)[C@H](Cc1c[nH]c2ccccc12)NC(=O)[C@H](CCC(N)=O)NC(=O)[C@H](Cc1c[nH]c2ccccc12)NC(=O)[C@H](CCCNC(=N)N)NC(=O)[C@@H](N)CCCNC(=N)N)C(N)=O)C(N)=O  MIC (broth microdilution; ATCC 43827; 24 h, 37 °C): 7 µM
CCC(O)CC#Cc1ccc(-n2nnc(/C(C)=N\NC(=N)N)c2C)cc1 (centres unmarked)  MIC (microbial growth, broth dilution; BW25113): > 64 µg/mL
COc1ccc2ccc3c(c2c1)C=[N+]1C2CCCCC2[N+]2=Cc4c(F)cccc4[O][Au-]21[O]3.F[P-](F)(F)(F)(F)F (centres unmarked)  MIC (bacterial growth, broth microdilution; carbapenem-resistant clinical isolate; 24 h): > 20 µM
CCCCc1ccc(N2C(=O)/C(=N\NC(=N)N)c3cc(OC)ccc32)cc1  MIC (microbial growth, broth dilution; 18 h): 12 µg/mL
COc1ccc2c(c1)[O][Au-]13[O]c4ccc5ccc(OC)cc5c4C=[N+]1C1CCCCC1[N+]3=C2.F[P-](F)(F)(F)(F)F (centres unmarked)  MIC (bacterial growth, broth microdilution; carbapenem-resistant; 24 h): > 20 µM
NC[C@@H]1O[C@H](O[C@H]2[C@@H](O)[C@H](O[C@@H]3[C@@H](O)[C@H](N)C[C@H](N)[C@H]3O[C@H]3O[C@H](CO)[C@@H](OCC(O)CO)[C@H](O)[C@H]3N)O[C@@H]2CO)[C@H](N)[C@@H](O)[C@@H]1O (some centres unmarked)  MIC (broth microdilution; clinical isolate AG 001): 32 to 64 µg/mL
COc1ccc2c(c1)C=[N+]1C3CCCCC3[N+]3=Cc4c(ccc5ccc(OC)cc45)[O][Au-]13[O]2.F[P-](F)(F)(F)(F)F (centres unmarked)  MIC (bacterial growth, broth microdilution; carbapenem-resistant clinical isolate; 24 h): > 20 µM
CN1CCC(NCCC2(Cc3ccc(Cl)cc3)CCCCC2)CC1  MIC (TOP10F′; 10 h): 50 µM
CC1COC(=O)N1/N=C/c1ccc([N+](=O)[O-])o1 (centres unmarked)  MIC (microbial growth, broth dilution; ATCC25922; 18 h): 6.25 µg/mL
CCn1cc[n+](CC)[c]1[Au-][Cl]  MIC (broth dilution; DSM 1116; 20 h, 37 °C): 22.4 µM
C[n+]1ccn(CC([O-])c2ccccc2)[c]1[Ag-][I].[Na+] (centres unmarked)  MIC (broth dilution; ATCC 25922; 18 h, 37 °C): 5 µg/mL
Cc1cc(O)cc2c1C(=O)c1c(cc3oc(=O)cc(-c4ccc(Cl)cc4)c3c1O)C2=O  MIC (microbial growth): 8 µg/mL
COc1ccc(-c2csc(N/N=C(\C)c3ccc4c(c3)sc3nc(=O)c(C#N)cn34)n2)cc1  MIC (microbial growth, broth dilution): < 39 µg/mL
COCO[C@H]1[C@H](O)[C@@H](N)[C@@H](O[C@H]2[C@H](O[C@@H]3O[C@H](CO)[C@@H](O[C@H]4O[C@@H](CN)[C@@H](O)[C@H](O)[C@H]4N)[C@H]3O)[C@@H](O)[C@H](N)C[C@@H]2N)O[C@@H]1CO  MIC (broth microdilution; clinical isolate AG 003): 64 to 128 µg/mL
NC[C@H]1OB(O)c2c(OCCO)cccc21  MIC (ATCC 25922; cation-adjusted Mueller-Hinton): 3.1 µM
c1ccc(CN2CCOCCOCCN(CCCCCCCCCCN3CCOCCOCCN(CCCCCCCCCCN4CCOCCOCCN(Cc5ccccc5)CCOCCOCC4)CCOCCOCC3)CCOCCOCC2)cc1  MIC (Tol-): 13 µM
C[n+]1ccc(/C=C2\Sc3ccccc3N2CCCN2CCCC2)c2ccccc21  MIC (microbial growth, broth dilution; ATCC 8739, ATCC8739): 4 µg/mL
CC1C(=O)NC(=O)N1/N=C/c1ccc([N+](=O)[O-])o1 (centres unmarked)  MIC (microbial growth, broth dilution; ATCC25922; 18 h): 6.25 µg/mL
C/C(=N\Nc1nc(C)cs1)c1ccc2c(c1)sc1nc(=O)c(C#N)cn12  MIC (microbial growth, broth dilution): < 41 µg/mL
CCCCCCCCCCCCCCN1C(=O)/C(=N\NC(=N)N)c2cc(C)ccc21  MIC (broth microdilution; 25922; 18 h, 37 °C): > 192 µg/mL
O=C1c2ccccc2C(=O)c2c1ccc1c2C(C(=O)Nc2ccc(Br)cc2)C(=O)C1c1ccccc1 (centres unmarked)  MIC (microbial growth): > 100 µg/mL
Oc1c(Br)ccc2cccnc12  MIC (microbial growth, agar dilution; ATCC25922): 35.7 µM
CCCCCCCCCC(=O)NCCCC[C@H](NC(=O)[C@H](CC(C)C)NC(=O)[C@H](CCCCN)NC(=O)[C@H](CCCCNC(=O)[C@H](CC(C)C)NC(=O)[C@H](CCN)NC(=O)[C@H](CCCCNC(=O)[C@H](Cc1ccccc1)NC(=O)[C@@H](N)CCCN)NC(=O)[C@H](Cc1ccccc1)NC(=O)[C@@H](N)CCCN)NC(=O)[C@H](CC(C)C)NC(=O)[C@H](CCN)NC(=O)[C@H](CCCCNC(=O)[C@H](Cc1ccccc1)NC(=O)[C@@H](N)CCCN)NC(=O)[C@H](Cc1ccccc1)NC(=O)[C@@H](N)CCCN)C(N)=O  MIC (broth microdilution; W3110; 37 °C): 4 µg/mL
COc1ccc2ccc3c(c2c1)C=[N+]1C2CCCCC2[N+]2=Cc4c(C)cccc4[O][Au-]21[O]3.F[P-](F)(F)(F)(F)F (centres unmarked)  MIC (bacterial growth, broth microdilution; carbapenem-resistant; 24 h): 20 µM
CCCSC1COC(=O)N1/N=C/c1ccc([N+](=O)[O-])o1 (centres unmarked)  MIC (microbial growth, broth dilution; ATCC25922; 18 h): > 50 µg/mL
CO[C@H]1[C@H](O)[C@@H](N)[C@@H](O[C@H]2[C@H](O[C@@H]3O[C@H](CO)[C@@H](O[C@H]4O[C@@H](CN)[C@@H](O)[C@H](O)[C@H]4N)[C@H]3O)[C@@H](O)[C@H](N)C[C@@H]2N)O[C@@H]1CO  MIC (broth microdilution; clinical isolate AG 001): > 128 µg/mL
Cc1ccc2ccc3ccc(C)nc3c2n1.Cc1ccc2ccc3ccc(C)nc3c2n1.O.[Cl-].[Cl-].[Cl-].[Yb+3]  MIC: 31 µg/mL
CCN(CC)CCCN1/C(=C/c2cc[n+](C)c3ccccc23)Sc2ccccc21  MIC (microbial growth, broth dilution; ATCC25922): 2 µg/mL
COc1ccc2c(c1CC=C(C)C)O[C@H]1c3cc(CC=C(C)C)c(O)cc3OC[C@@H]21  MIC (TISTR 780): 128 µg/mL
CO[C@H]1CN(c2ccc(C(N)=O)nn2)CC[C@H]1NC(=O)c1[nH]c(C)c(Cl)c1Cl  MIC (ATCC 25922): 8 µg/mL
Cc1[nH]c(=O)c(CNC(=O)c2ccc(C(F)(F)F)nc2)c2c1CCCC2  MIC (microbial growth, agar dilution; clinical isolate): > 128 µg/mL
C[C@@H](O)[C@H]1C(=O)N2C(C(=O)O)=C(S[C@@H]3CN[C@H](C(=O)N(C)C)C3)[C@H](C)[C@H]12  MIC (microbial growth, broth dilution; ATCC25922): 3.12 µM
CC1OCC2OC(OC3C(N)CC(N)C(O)C3OC3OC(CO)C(OC4OC(CN)C(O)C(O)C4N)C3O)C(N)C(O)C2O1 (centres unmarked)  MIC (broth microdilution; clinical isolate AG 001): > 128 µg/mL
COc1ccc2ccc3c(c2c1)C=[N+]1C2CCCCC2[N+]2=Cc4cccc(OC)c4[O][Au-]21[O]3.F[P-](F)(F)(F)(F)F (centres unmarked)  MIC (bacterial growth, broth microdilution; carbapenem-resistant; 24 h): 20 µM
CC(C)=CCc1cc2c(cc1O)OCc1c-2oc2c(CC=C(C)C)c(O)ccc12  MIC (TISTR 780): 128 µg/mL
COc1ccc2ccc3c(c2c1)C=[N+]1C2CCCCC2[N+]2=Cc4ccc(F)cc4[O][Au-]21[O]3.F[P-](F)(F)(F)(F)F (centres unmarked)  MIC (bacterial growth, broth microdilution; carbapenem-resistant; 24 h): 20 µM
CCn1cc(C(=O)NCCNCCO)c(=O)c2cc(OC)c(OCc3cccc(F)c3)cc21  MIC (ATCC 25922; ≥80% growth inhibition): < 0.25 µg/mL

For quick reference, copied from above:
C[C@@H](O)[C@H]1C(=O)N2C(C(=O)O)=C(S[C@@H]3CN[C@H](C(=O)N(C)C)C3)[C@H](C)[C@H]12  MIC (microbial growth, broth dilution; ATCC25922): 3.12 µM
CCn1cc[n+](CC)[c]1[Au-][Cl]  MIC (broth dilution; DSM 1116; 20 h, 37 °C): 22.4 µM
COc1ccc(-c2csc(N/N=C(\C)c3ccc4c(c3)sc3nc(=O)c(C#N)cn34)n2)cc1  MIC (microbial growth, broth dilution): < 39 µg/mL
CC(C)=CCc1cc2c(cc1O)OCc1c-2oc2c(CC=C(C)C)c(O)ccc12  MIC (TISTR 780): 128 µg/mL
C/C(=N\Nc1nc(C)cs1)c1ccc2c(c1)sc1nc(=O)c(C#N)cn12  MIC (microbial growth, broth dilution): < 41 µg/mL
